Results gathered from unrelated publications.
Parts stem from different laboratories: compare values within a part only.
Sequence of UniProt P21709 (whole entry, looked up): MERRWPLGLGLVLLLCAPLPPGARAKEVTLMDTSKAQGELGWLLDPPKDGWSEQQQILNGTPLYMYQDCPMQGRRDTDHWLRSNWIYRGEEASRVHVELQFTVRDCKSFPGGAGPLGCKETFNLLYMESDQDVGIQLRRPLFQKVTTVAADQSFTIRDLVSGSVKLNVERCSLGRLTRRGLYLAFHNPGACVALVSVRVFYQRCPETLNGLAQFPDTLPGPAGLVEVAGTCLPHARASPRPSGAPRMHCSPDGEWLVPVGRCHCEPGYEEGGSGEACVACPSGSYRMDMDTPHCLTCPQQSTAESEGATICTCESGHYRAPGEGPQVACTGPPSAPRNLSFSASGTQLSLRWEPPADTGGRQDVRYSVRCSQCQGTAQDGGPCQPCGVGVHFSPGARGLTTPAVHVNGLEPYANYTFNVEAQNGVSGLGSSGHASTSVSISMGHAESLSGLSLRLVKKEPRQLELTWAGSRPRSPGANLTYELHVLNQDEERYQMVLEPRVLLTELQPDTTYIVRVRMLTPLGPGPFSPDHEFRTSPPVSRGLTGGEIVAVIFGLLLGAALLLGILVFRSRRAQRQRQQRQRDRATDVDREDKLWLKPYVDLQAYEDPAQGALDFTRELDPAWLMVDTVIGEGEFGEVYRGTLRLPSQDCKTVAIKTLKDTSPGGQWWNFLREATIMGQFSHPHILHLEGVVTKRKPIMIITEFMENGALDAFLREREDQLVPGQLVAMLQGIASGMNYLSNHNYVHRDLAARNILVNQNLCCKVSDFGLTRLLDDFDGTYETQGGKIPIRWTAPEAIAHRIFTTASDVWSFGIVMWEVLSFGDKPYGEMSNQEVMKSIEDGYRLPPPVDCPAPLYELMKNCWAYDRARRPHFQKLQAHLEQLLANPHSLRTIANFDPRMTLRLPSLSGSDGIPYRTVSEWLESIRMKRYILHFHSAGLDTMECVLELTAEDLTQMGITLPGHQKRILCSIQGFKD
Sequence of UniProt P07333 (whole entry, looked up): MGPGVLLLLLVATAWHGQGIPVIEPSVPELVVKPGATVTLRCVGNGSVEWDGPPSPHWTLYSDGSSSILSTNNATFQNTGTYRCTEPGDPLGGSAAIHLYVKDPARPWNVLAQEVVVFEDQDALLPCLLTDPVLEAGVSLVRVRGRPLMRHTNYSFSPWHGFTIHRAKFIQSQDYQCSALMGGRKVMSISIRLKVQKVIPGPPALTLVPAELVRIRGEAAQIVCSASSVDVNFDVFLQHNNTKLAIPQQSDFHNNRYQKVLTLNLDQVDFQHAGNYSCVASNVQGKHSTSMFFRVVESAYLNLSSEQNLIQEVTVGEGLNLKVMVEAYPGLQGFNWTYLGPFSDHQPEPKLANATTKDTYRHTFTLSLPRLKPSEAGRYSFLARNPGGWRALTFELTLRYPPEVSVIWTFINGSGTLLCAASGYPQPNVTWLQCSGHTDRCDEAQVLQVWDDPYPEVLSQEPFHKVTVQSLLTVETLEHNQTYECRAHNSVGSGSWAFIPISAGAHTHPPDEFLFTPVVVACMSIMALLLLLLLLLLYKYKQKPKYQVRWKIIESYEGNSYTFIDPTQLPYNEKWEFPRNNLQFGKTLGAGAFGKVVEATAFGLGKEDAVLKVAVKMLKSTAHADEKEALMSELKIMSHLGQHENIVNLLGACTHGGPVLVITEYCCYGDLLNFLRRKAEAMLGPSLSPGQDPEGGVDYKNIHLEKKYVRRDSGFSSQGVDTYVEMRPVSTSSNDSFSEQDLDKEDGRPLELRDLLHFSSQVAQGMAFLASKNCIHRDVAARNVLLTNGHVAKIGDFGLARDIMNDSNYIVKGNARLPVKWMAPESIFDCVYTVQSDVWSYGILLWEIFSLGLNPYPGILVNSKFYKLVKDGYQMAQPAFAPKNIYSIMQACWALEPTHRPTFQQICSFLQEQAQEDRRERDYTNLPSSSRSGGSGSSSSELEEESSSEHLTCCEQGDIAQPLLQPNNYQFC
Sequence of UniProt Q8WXR4 (whole entry, looked up): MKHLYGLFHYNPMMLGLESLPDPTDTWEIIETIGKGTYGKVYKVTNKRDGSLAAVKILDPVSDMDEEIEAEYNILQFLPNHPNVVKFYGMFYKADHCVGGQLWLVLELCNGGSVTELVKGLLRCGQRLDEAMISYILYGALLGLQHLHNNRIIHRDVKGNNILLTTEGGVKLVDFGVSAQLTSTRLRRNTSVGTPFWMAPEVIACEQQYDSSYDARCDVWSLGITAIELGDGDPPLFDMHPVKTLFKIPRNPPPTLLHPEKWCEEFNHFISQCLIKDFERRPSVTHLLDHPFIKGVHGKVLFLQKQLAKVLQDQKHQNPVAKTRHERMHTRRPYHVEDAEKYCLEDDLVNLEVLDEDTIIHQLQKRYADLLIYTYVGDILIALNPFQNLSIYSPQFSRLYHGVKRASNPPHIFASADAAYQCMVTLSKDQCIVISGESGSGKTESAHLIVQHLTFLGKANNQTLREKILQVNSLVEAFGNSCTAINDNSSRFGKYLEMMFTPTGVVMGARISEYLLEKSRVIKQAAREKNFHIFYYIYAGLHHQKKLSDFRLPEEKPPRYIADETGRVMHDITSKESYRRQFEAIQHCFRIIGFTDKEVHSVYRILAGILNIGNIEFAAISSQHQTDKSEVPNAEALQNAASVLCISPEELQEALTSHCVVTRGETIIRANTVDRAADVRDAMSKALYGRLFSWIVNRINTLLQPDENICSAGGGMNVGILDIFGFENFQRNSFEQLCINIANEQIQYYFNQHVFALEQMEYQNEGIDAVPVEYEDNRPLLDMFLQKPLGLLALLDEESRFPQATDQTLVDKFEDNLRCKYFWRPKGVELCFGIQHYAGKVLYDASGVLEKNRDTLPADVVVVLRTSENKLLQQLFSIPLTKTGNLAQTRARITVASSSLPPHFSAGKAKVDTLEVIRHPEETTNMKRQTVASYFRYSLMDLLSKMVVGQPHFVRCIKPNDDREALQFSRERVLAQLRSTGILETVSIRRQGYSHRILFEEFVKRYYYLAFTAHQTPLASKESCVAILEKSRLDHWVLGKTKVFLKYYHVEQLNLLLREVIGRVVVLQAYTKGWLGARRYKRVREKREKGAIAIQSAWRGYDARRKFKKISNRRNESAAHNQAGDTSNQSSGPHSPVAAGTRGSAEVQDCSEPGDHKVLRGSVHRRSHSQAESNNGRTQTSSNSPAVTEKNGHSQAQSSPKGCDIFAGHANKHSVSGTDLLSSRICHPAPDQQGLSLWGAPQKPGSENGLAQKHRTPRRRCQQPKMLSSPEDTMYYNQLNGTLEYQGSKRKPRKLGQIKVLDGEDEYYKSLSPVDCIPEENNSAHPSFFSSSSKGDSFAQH
Sequence of UniProt Q13705 (whole entry, looked up): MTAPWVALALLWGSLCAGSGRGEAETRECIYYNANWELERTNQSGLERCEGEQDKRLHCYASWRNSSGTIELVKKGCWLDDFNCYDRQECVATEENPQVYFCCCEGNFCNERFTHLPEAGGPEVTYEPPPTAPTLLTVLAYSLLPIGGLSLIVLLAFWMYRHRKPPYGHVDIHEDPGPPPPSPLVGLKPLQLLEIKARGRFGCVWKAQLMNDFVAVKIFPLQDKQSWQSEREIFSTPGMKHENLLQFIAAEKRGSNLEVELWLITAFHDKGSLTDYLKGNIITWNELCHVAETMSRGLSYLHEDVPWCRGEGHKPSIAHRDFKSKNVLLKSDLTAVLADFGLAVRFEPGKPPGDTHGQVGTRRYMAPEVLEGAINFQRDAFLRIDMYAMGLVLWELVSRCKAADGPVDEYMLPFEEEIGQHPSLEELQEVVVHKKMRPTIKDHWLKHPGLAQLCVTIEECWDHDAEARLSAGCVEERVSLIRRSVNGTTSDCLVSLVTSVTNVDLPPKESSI
Sequence of UniProt P49674 (whole entry, looked up): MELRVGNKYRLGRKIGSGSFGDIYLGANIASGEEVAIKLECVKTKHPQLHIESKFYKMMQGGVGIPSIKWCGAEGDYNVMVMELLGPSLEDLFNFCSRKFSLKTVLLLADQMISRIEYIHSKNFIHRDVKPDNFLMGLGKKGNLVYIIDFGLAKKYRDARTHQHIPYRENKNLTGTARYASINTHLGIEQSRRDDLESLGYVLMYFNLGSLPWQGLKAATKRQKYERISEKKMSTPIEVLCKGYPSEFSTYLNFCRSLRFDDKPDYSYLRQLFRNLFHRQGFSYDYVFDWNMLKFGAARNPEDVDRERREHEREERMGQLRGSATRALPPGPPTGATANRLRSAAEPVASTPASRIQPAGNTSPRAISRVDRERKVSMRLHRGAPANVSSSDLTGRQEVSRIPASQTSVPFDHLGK

Study 1 — read-out: enzyme activity; action: inhibitor; tested at: 0.5 µM; relative to: control; measurement: remaining activity
Target: Protein kinase C beta type, isoform beta-II (PRKCB, Homo sapiens, UniProt P05771)
Sequence of UniProt P05771 (whole entry, looked up): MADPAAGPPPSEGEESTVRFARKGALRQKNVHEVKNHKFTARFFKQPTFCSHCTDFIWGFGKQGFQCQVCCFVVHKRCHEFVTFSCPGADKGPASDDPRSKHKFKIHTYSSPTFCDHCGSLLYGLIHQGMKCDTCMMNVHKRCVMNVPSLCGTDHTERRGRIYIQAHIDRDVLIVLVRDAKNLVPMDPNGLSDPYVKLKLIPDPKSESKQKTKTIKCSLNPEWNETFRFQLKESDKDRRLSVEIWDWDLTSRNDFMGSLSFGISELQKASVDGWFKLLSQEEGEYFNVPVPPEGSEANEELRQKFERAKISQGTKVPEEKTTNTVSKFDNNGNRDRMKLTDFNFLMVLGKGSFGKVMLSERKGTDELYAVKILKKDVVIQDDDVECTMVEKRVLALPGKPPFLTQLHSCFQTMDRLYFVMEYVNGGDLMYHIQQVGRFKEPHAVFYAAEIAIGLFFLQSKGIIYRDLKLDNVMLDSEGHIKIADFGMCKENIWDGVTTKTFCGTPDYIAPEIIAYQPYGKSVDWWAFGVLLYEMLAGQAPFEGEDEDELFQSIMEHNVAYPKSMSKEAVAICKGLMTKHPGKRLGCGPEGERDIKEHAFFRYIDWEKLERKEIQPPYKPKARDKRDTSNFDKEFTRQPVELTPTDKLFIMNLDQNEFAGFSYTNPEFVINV
O=c1cc(N2CCOCC2)oc2c(-c3ccccc3)cccc12: 104%
O=C1Cc2c([nH]c3ccc(Br)cc23)-c2ccccc2N1: 102%
O=C1Nc2ccc(Br)cc2/C1=C/c1cc2c([nH]1)CCCC2: 85.5%
O=C(c1cc2cc(O)ccc2[nH]1)c1cc2cc(O)ccc2[nH]1: 98.9%
N#Cc1cnc2cnc(NCc3cccnc3)cc2c1Nc1ccc(F)c(Cl)c1: 86.2%
COc1ccc(COc2ccc(Cc3cnc(N)nc3N)cc2OC)cc1: 110%
COc1cccc(-c2cc(=O)c3ccccc3o2)c1N: 102%
CCCNC(=O)Nc1ccc(Oc2ncnc3cc(OC)c(OC)cc23)cc1Cl: 93.6%
O=Nc1c(-c2c(O)[nH]c3cc(Br)ccc23)[nH]c2ccccc12: 108%
Cc1cc(Nc2cc(N3CCN(C)CC3)nc(Sc3ccc(NC(=O)C4CC4)cc3)n2)[nH]n1: 89.7%

Study 2 — method: competition with immobilised ligand; tested at: 1 µM; measurement: remaining binding
SMILES: NS(=O)(=O)c1cc(NC(=O)Cc2ccccc2)ccc1Oc1cccc(Cl)c1
ACVR2B (Homo sapiens, UniProt Q13705); binding: 75%
SGK2 (Homo sapiens, UniProt Q9HBY8); cell-free assay: 85%
EPHA1 (Homo sapiens, UniProt P21709); cell-free assay: 100%
RIPK4 (Homo sapiens, UniProt P57078); cell-free assay: 83%
PRKG2 (Homo sapiens, UniProt Q13237); cell-free assay: 86%
Myosin-IIIa (MYO3A, Homo sapiens, UniProt Q8NEV4); binding: 100%
MAP2K6 (Homo sapiens, UniProt P52564); cell-free assay: 99%
DAPK3 (Homo sapiens, UniProt O43293); cell-free assay: 95%
EPHB2 (Homo sapiens, UniProt P29323); cell-free assay: 100%
Myosin-IIIb (MYO3B, Homo sapiens, UniProt Q8WXR4); binding: 100%
IRAK3 (Homo sapiens, UniProt Q9Y616); cell-free assay: 87%
FLT1 (Homo sapiens, UniProt P17948); cell-free assay: 80%
CSNK1E (Homo sapiens, UniProt P49674); cell-free assay: 100%
NEK4 (Homo sapiens, UniProt P51957); cell-free assay: 98%
Macrophage colony-stimulating factor 1 receptor, autoinhibited (CSF1R, Homo sapiens, UniProt P07333); cell-free assay: 51%
MAPKAPK5 (Homo sapiens, UniProt Q8IW41); cell-free assay: 100%
Tyrosine-protein kinase ABL1, phosphorylated (ABL1, Homo sapiens, UniProt P00519); cell-free assay: 75%

Study 3 — measurement: inhibition
Compound: COc1cc(C(=O)N2CCC(N3CCN(C)CC3)CC2)ccc1Nc1ncc2c(n1)N(C)c1ccccc1C(=O)N2C
ZAP70 (human); probe labelling, KiNativ, refers to: DFG motif peptide; PBMC lysate (human); 1 µM, with: ADP acyl-phosphate probe: 24.2%
mouse BRSK2 and CHK1; probe labelling, KiNativ ADP probe; mouse brain lysate; 1 µM, LYS2 site DIkPENLLLDER: -14.7%
MAP2K1 and MAP2K2 (mouse); probe labelling, KiNativ, refers to: DVkPSNILVNSR peptide, LYS2 site; brain tissue lysate (mouse); 0.1 µM, with: ATP acyl-phosphate probe: -8.4%
NEK7 human; KiNativ profiling; human PBMC; 1 µM, activation loop site, with: ATP acyl phosphate probe: -8.1%

Study 4 — method: phase 2a trial; species: idiopathic pulmonary fibrosis patients; measurement: patients with eosinophilia
SMILES: CC(C)n1cnc(-c2ccc(F)cc2)c1-c1ncc(C(=O)Nc2ccc(N3CCN(C)CC3)cc2)[nH]1
dose not given, adverse event grade 2, all dose arms pooled: 0%
30 mg once daily, adverse event grade 5: 0%
30 mg once daily, adverse event grade 1: 0%
30 mg once daily, adverse event grade 4: 0%
dose not given, adverse event grade 3, all dose arms pooled: 0%
30 mg once daily, adverse event grade 3: 0%
